Measurements gathered from unrelated publications.
A part holds a random share of what one study measured. Substitutions count along the parent as printed.

Block 1 — method: universal PBM; form: double-stranded DNA, one strand shown; matrix: in vitro; tested at: not given; direction: higher = stronger binding
Target: Sal-like protein 4, full length isoform B (SALL4, Homo sapiens, UniProt Q9UJQ4-2, residues 1-616)
Setting: 8-mer, flanks averaged, mean of replicates
For `CGGACTGC`, the E-score was -0.138.
With `AAATGCCT` the E-score was 0.132.
With `GTACGCCA` the E-score was -0.244.
For `CCATAGGA`, the E-score was -0.00899.
The E-score of `AGTTGTAA` is reported as 0.0717.
The E-score of `CATGCCCC` is reported as -0.21.
`GAAGCCCA` gave an E-score of -0.151.
With `AATAGGGA` the E-score was 0.0517.
`AGCCAATC` gave an E-score of -0.071.
The E-score of `AAACGGTA` is reported as 0.0624.
`AATGCCCG` has an E-score of -0.281.
`ATACCCAC` has an E-score of 0.107.
With `CAAAGCTA` the E-score was 0.161.
`AATACGGC` gave an E-score of -0.0363.
`GACTCTGA` gave an E-score of -0.0449.
With `GGTGTTAC` the E-score was -0.0268.
With `AACCGAGG` the E-score was -0.176.
With `CCCCTCCC` the E-score was -0.269.
With `CGTTAATC` the E-score was 0.136.
For `CAAGCCAA`, the E-score was -0.0456.
`CCTGTTAC` gave an E-score of 0.158.
With `GAGGGGCA` the E-score was -0.119.
For `AATATCCC`, the E-score was 0.175.
`ACGCTAAG` gave an E-score of -0.116.
The E-score of `AGCGTAAT` is reported as 0.17.

Block 2 — target: FOSB, bZIP domain (human); method: DHFR protein complementation; matrix: yeast; baseline: wild-type JUN-FOS pair; direction: higher = stronger binding
Setting: single substitutions, most at no-binding floor
Starting sequence: JUN, bZIP domain (human); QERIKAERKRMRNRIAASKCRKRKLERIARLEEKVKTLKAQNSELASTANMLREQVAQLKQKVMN; partner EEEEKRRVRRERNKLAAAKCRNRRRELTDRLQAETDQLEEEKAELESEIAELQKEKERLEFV
For `L31I`, the binding fitness was -0.422 natural log.
With `Q41W` the binding fitness was -1.14 natural log.
With `T48M` the binding fitness was -0.165 natural log.
The binding fitness of `V35S` is reported as -0.474 natural log.
The binding fitness of `E32I` is reported as -0.438 natural log.
The binding fitness of `E33R` is reported as -0.181 natural log.
The binding fitness of `L38Q` is reported as -0.339 natural log.
With `L59R` the binding fitness was -1.07 natural log.
`K36R` has a binding fitness of -0.00452 natural log.
The binding fitness of `L45M` is reported as -0.394 natural log.
For `Q41T`, the binding fitness was -0.144 natural log.
For `L38C`, the binding fitness was -1.11 natural log.
The binding fitness of `I28L` is reported as -0.156 natural log.
With `R30T` the binding fitness was 0.105 natural log.
`E32K` has a binding fitness of -0.0582 natural log.
The binding fitness of `T48I` is reported as -0.0527 natural log.
`E54K` has a binding fitness of -0.287 natural log.
With `L52H` the binding fitness was -1.15 natural log.

Block 3 — method: DHFR PCA, deep sequencing; matrix: yeast; together with: (+)-ABA 1.4 µM; baseline: wild-type fitted maximum; direction: higher = stronger binding
Target: ABI1, truncated, D143A, DHFR fusion (Arabidopsis thaliana)
Setting: methotrexate growth selection, single substitutions
Starting sequence: PYL1, truncated, DHFR fusion (Arabidopsis thaliana); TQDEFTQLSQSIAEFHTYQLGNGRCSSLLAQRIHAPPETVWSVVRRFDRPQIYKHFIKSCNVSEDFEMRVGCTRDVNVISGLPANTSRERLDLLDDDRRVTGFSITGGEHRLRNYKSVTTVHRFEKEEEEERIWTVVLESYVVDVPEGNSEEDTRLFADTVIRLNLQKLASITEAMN; partner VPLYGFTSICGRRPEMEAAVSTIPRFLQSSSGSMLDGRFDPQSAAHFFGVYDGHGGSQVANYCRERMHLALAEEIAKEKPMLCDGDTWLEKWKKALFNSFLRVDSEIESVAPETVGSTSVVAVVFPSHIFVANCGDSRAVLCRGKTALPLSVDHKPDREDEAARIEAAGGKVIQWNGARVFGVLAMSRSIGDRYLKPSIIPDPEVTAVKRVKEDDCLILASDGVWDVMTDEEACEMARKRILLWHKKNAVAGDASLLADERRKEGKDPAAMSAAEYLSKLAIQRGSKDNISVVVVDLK
`I33Y`: “relative binding score” 8.16%.
Under “relative binding score”, `T119L` is recorded as 36.9%.
`I52V` — result for “relative binding score”: 71.5%.
For `N85S`, “relative binding score” read 78.6%.
For `D92R`, “relative binding score” read 0.245%.
Under “relative binding score”, `E147D` is recorded as 55.2%.
Under “relative binding score”, `S87V` is recorded as 38.6%.
`R155A` — result for “relative binding score”: 4.04%.
For `V70A`, “relative binding score” read 30.9%.
Under “relative binding score”, `V62N` is recorded as 4.89%.
Under “relative binding score”, `N77T` is recorded as 81.4%.
Under “relative binding score”, `R74Q` is recorded as 4.82%.
`N22V`: “relative binding score” 64.4%.
`K54H` — result for “relative binding score”: -6.21%.
Under “relative binding score”, `V100H` is recorded as -0.563%.
`E128T`: “relative binding score” 60.8%.
`I105C`: “relative binding score” 5.56%.
`Q167K`: “relative binding score” 69.3%.
For `V44Y`, “relative binding score” read -25.5%.
`S63L` — result for “relative binding score”: 24.1%.
`Q7W`: “relative binding score” 63.7%.
Under “relative binding score”, `D95L` is recorded as 0.548%.
For `Q167W`, “relative binding score” read 5.97%.
For `S63Q`, “relative binding score” read 58.2%.

Block 4 — target: CCNF, cyclin fold, Cln2 fusion (human); method: yeast growth competition, sequencing; matrix: yeast; setting: strong parent motif; baseline: not given; direction: higher = stronger binding
Starting sequence: RB1 docking peptide (human); PKPLKKLRFDIEG; partner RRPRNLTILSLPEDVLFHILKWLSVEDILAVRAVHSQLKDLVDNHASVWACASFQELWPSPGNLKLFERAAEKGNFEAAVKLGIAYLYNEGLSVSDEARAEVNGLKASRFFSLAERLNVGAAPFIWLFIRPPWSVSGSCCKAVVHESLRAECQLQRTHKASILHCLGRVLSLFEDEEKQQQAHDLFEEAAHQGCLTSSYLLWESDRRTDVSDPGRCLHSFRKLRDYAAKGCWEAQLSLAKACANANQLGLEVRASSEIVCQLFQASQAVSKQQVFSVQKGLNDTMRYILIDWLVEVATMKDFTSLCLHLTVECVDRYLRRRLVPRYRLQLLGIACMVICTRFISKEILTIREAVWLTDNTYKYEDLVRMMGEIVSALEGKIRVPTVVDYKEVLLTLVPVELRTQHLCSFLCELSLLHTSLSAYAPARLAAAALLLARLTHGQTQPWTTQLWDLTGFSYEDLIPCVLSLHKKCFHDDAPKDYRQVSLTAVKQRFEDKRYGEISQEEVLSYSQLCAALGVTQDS
For `L7W`, “normalised enrichment score” read 1.72.
Under “normalised enrichment score”, `G13P` is recorded as 2.21.
`F9S` — result for “normalised enrichment score”: 0.746.
`K6W`: “normalised enrichment score” 1.62.
`P1A` — result for “normalised enrichment score”: 0.807.
For `D10Q`, “normalised enrichment score” read 1.26.
Under “normalised enrichment score”, `K5E` is recorded as 0.247.
For `L7H`, “normalised enrichment score” read 0.892.
`L4D`: “normalised enrichment score” 1.92.
`L7R` — result for “normalised enrichment score”: 0.872.
`P1R`: “normalised enrichment score” 1.8.
`K5N`: “normalised enrichment score” 1.14.
For `E12I`, “normalised enrichment score” read 2.63.
For `E12N`, “normalised enrichment score” read 1.63.

Block 5 — method: RNA Bind-n-Seq; form: RNA; matrix: in vitro; tested at: not given; baseline: input RNA pool; direction: higher = stronger binding
Target: RING finger protein unkempt homolog, zinc fingers 1-6, GST-SBP tag (UNK, Homo sapiens, UniProt Q9C0B0, residues 30-357)
Chain of UniProt Q9C0B0 (30-357, looked up): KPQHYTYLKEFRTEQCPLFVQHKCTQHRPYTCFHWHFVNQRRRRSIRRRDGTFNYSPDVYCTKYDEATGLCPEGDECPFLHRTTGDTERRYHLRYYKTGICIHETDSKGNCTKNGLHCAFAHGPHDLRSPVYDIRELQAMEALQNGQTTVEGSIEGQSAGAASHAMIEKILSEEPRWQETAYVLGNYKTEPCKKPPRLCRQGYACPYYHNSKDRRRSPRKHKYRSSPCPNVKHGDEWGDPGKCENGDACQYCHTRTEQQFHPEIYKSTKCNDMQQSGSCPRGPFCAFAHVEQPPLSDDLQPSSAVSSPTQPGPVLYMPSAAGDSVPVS
Setting: RNA with constant flanks, human and mouse sites, ends assumed
With `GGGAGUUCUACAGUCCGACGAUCCUGAUGCCGAUUGUGUACACGCCAACAGUUGGUCUUGCCUGCUGUCAAUAUGGGCACAUCUUUAGGAGACCUAAGGGAUUGUUUAUUUCAAUCUCAGACAGAGGUCAUGUUAGAUCAAUUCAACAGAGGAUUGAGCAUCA` the bound/input enrichment was 0.569 ratio.
With `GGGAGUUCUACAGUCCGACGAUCCAGAGAAAUCACCUUAAUGCAGUCUCUUUAGUUGUCUGCUGAAGCUGUAGUUAUUAUGGGCCACUUACAUGAGGCUGAGAAGUACGUGCCGGAGCUCACACACUGCCUGUUGCGGUUCUCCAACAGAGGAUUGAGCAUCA` the bound/input enrichment was 0.135 ratio.
`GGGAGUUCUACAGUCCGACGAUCUGAAUUGUUACCUUAAAAUCUUAUCACUAACUUUAUUAGUAUUAUUAAUUAUUACGUUGGUUCCUACUGCUGGGAAGCUGUUCACAUCGCUCCUUAUACAGGAGCCAGCAAGCUGUAGGCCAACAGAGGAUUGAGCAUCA` gave a bound/input enrichment of 68 ratio.
`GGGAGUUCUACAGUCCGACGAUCGCCGGAGAUGCCCUGGAUGGCGGCUUUCAGGCGCGGUGUGAGAAGAGCCCUUUCGACCAGCUAGCUUUUAUCGAAGAGCUGUUUUCGCUGAUGGUUGUCAAUCGACUGACCGAAGAGCUCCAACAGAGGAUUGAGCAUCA` gave a bound/input enrichment of 0.273 ratio.
With `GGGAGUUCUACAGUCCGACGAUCUCGGUACUUGAUUCAGCUCUUCAUCCACCACCCCGUGGACCUUUUCCUCCAGGAGAUAUUUUUAGUCAACCAGAAAGACCUUUUUUAGCUCCUGGAAGACAAAGCGUAGACAAUGUUACUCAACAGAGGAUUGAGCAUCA` the bound/input enrichment was 0.303 ratio.
For `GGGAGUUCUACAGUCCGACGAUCUCUGAGGAAAGGAGACCCUCUCCCAAGGAGUCCAAGGAGGCAGAUGUGGCCACAGUCCGUUUAGGGGAAAAAAGGAGUCACCAUCUAGCUCACUACAGGGCUUCAGAAGAAGAACCUGAACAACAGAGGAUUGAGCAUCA`, the bound/input enrichment was 0.571 ratio.
For `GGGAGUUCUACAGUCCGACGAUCGGAAUUCAACCUGUUAUAGAUAAAUUAAGGGAACAUGAAAAUUCAACACUAGACAGGCAUUUAGACUUUUUUGAAAUGCUCCGAAAUGAAGAUGAACUAGAAUUUGCCAAAAGAUUUGAACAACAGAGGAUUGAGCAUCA`, the bound/input enrichment was 2.39 ratio.
For `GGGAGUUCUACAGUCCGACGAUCGUUCCCAAUGUUUCUCACAAUGUUGCCUUGAAAGUCAGUGUUCAGUCCUUGCCCAGACAAUCUAAUUAUCCAGUUUUGACGUGCAGUAUUCACACUAAUAUUGGCCUUUAUGAGAAAAGACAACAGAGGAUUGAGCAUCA`, the bound/input enrichment was 0.204 ratio.
`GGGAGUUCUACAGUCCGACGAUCCACAUGCUGCCGGGCCAGAACCAGUUCCUACUGCCUGGCGCCCCGGCGGUCCAGCUCCCGCAGCAGCUCUCAGCCCUGCCGGCCAACGUGGGCGGGCAGAUCCUGGCGGCCGCUGCCCCCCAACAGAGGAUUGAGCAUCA` gave a bound/input enrichment of 0.101 ratio.
`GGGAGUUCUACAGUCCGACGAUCAAAGCAAAAUUAGGGGAAAACUCAGCAACCAAUGUAUGCAGUCCAUCUUUGGGAAACAUCUCUAAUGUCGAUACAAAUGGGGAACAUUUAGAAAGUUAUGAGGCUGAGAUCUCCACUAGACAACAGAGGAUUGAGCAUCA` gave a bound/input enrichment of 0.929 ratio.
With `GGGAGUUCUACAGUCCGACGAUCCUCUCAUUAUUUAUUGAUGAUAAACUGAAAAAGGGAGUCAAAGGGCUAACAGAACAAGAAGUAGAAACAAUAUUGGAUAAGGCAAUGGUCCUUUUUAGGUUUAUGCAAGAAAAAGAUGUACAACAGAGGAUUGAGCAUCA` the bound/input enrichment was 11.5 ratio.

Block 6 — method: protein binding microarray; form: double-stranded DNA, one strand shown; matrix: in vitro; tested at: not given; baseline: not given; direction: higher = stronger binding
Target: Histone acetyltransferase KAT6A, winged helix 2, GST fusion (KAT6A, Homo sapiens, UniProt Q92794, residues 85-181)
Setting: 8-mer, flanks averaged, mean of 2 arrays, mostly near background
Residues (chain): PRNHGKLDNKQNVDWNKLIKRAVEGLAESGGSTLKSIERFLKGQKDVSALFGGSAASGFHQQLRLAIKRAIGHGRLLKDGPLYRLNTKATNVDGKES
`GGAGTCGA` gave an E-score of -0.107.
The E-score of `ATTACGCC` is reported as -0.0653.
`CAGCGGAC` has an E-score of 0.145.
With `AATACCGT` the E-score was -0.0923.
For `AGGATTGC`, the E-score was -0.0364.
`ACAAGTGG` gave an E-score of -0.21.
For `AAAACTAG`, the E-score was -0.00707.
For `CTCAGACA`, the E-score was 0.0679.
The E-score of `CCCCTCCG` is reported as 0.176.
`GCGTTTCC` gave an E-score of -0.142.
For `AATGGTCA`, the E-score was -0.0107.
With `TAATTGAA` the E-score was 0.111.
For `TAGAGAGA`, the E-score was -0.0053.
For `CAAGTTAG`, the E-score was -0.197.
`CGTAGCGC` gave an E-score of -0.0596.
`AACCGACC` gave an E-score of 0.0502.
For `CCCCAAGC`, the E-score was 0.139.
With `ATTTCCAA` the E-score was -0.0387.
The E-score of `ATAAAGTA` is reported as 0.0211.
With `ATGTTGGC` the E-score was -0.0793.
